Measurements collected from several papers.
A part holds a random share of what one study measured. Changes are numbered by the printed parent chain.

Study 1
Target: Centromere-binding protein 1, full length, His-tagged (CBF1, Saccharomyces cerevisiae, UniProt P17106, residues 1-351)
UniProt P17106, sequence (whole entry, looked up): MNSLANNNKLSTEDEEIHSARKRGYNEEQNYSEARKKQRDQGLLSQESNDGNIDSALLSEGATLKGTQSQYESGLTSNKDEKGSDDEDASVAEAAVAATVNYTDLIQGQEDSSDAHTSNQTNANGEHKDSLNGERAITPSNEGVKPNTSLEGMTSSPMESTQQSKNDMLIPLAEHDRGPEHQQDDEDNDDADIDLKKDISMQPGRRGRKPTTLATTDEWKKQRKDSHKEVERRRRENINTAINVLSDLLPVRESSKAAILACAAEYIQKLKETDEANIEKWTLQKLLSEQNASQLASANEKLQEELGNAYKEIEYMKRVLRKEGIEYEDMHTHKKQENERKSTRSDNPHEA
Technique: competition protein-binding microarray
Molecule type: double-stranded DNA, one strand shown
Medium: in vitro
Tested at: 2 µM
Notes: whole 60-bp probe, lowest competitor level
With: Pho4 competitor, 0.05 µM
Direction: higher = stronger binding
Endpoint: fluorescence intensity
All sequences stand within: … GTCTTGATTCGCTTGACGCTGCTG
Strand = CTTGCCAGGTACCATCACGCACGGCATGTTTTCTTC; value = 80.7 a.u.
Strand = AGTATCCTCGACCTACACGTCTTCACCATCGGCTTC; value = 61.6 a.u.
Strand = CTTTCCCGATCTTTTCACGTGATGTTAGCACATTTG; value = 3050 a.u.
Strand = TGCGCAACAACTTGTAAGGTGGGTGTATGTCTAGAA; value = 72.3 a.u.
Strand = CTTCTGTAAATTTTTCACGTGCTTTGACGCGCCCCG; value = 1040 a.u.
Strand = CGGGGTTAAGTTTTTCACGTGGGTTGCTTGCAGCAG; value = 565 a.u.
Strand = TGCGCAACAACTTGTCACGGAACTTTATGTCTAGAA; value = 97.6 a.u.
Strand = CCTGGACCTCCTGACCACGTGGTACTGCAGCTTCAA; value = 1660 a.u.

Study 2
Target: Hepatocyte nuclear factor 3-alpha (Foxa1, Mus musculus, UniProt P35582, residues 1-468, full length assumed)
UniProt P35582, sequence (whole entry, looked up): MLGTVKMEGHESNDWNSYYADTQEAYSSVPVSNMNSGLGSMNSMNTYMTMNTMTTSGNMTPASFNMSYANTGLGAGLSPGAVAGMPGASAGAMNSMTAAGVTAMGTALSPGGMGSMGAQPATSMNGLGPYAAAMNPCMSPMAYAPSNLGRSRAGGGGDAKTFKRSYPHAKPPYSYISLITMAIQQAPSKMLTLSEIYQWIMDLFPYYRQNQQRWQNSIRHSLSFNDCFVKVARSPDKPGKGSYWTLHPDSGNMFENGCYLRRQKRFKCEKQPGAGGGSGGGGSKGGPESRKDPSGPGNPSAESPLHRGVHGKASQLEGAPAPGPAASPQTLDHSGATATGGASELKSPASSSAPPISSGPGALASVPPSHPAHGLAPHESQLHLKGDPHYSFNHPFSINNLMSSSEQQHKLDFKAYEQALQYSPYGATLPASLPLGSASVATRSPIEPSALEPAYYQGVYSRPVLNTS
Technique: EMSA with sequencing
Molecule type: double-stranded DNA, one strand shown
Medium: in vitro
Tested at: 10 and 20 nM
Notes: whole designed probe, mean of two concentrations, ends assumed
Relative to: negative control set to 0
Direction: higher = stronger binding
Endpoint: normalised bound fraction
All sequences stand within: GTGAGCGGTGCCCATTGATGGGGAAC … TTTCACTGGGATCGTGGGGAC
Strand = CTCATTCCTTGCTTCCGCCAATAATCTGACTAGTAAAGAAGTCACTGCATGCCACAAAGAGTGACTCAGGACTTCCTCAACAAGGAAGTTATTTATTTACTTATTTAATATATGAGTGTCACAGATGCAAATTCCATCTTGAGAATACCAACTCCTGATGCCAACTGATTGTCAGTCATGGCTACAACAGGAG; value = 0.463 ratio
Strand = TCCAAGTTTTATTTGTATTAAAACCTCTCTACAACATCATCACTTAACAGCAGCTAATTATAGTGCTGCATAATATCTTATTTTCATCTGTATGTTTACATAGTTTTTAATTAGCTGTAGTTATAATTTTTTGATTTACTTTTGATATATAATGTGAATCATTATATATTAGGGGTCCCCAACCCCTGGGCCA; value = 0.477 ratio
Strand = CCTAGGACCATCTTCTACTTATGAGAGTGAACTTCACTGTATGTCACCAATTCCGTACCTTGTCTATTGTTTAATAGTCGAGATACTGTCAAAGTAATCTAATGCTGCCACCTTGTGGACTGAAGGGTATGGTCTTAACTCCAAATAAGCAAAGGAAGAAAAATACGTTTCTGGTTCGGCCTTTTCTCTCAGA; value = 0.0535 ratio
Strand = ATCTTCCCCCTCTTCCTTGCCCCACCAGCTCACCTTCCCGGGTTATTTGCAGATAGGAAAATAAATAAAGCCGGCATTCGTTAACCCTCTTCACGCGCATACTGCTGTTTGCTCTGGATCTAACATGGTCCTTTGGCGACGCCAGGCTCCGGGAGAGCAAAGCACCGTGTCAGGGCCATGATCCGGGCTCGCC; value = 0.345 ratio
Strand = CAGCTTTTCATATCTGGCCATCTTAGAGCAGGGGAGATTGAGAAACAGAGAGAGGAAGAACCAGGGAAAGAAGTCTGGCTCCAAGCCCAGTGGGTAAACATGCTGGCTGCCTTCTCACACAGATTACTTTTCAAAAATGAAAAGGGAGTGTCCAGCTTCGTTTGGAATAAAGATGAGGAAATGACTCTCAGCT; value = 0.0849 ratio

Study 3
Target: UBE2V2 UBC core domain (UniProt Q15819)
Technique: yeast two-hybrid
Medium: yeast
Notes: mostly zero background
Relative to: not given
Direction: higher = stronger interaction
Endpoint: lacZ reporter activity
B1: RNF150 RING domain (UniProt Q9ULK6); chain DKETESDFDNCAVCIEGYKPNDVVRILPCRHLFHKSCVDPWLLDHRTCPMCKMNILKALGIP
B2: TRIM15 RING domain (UniProt Q9C019); chain SLKVVHELPACTLCAGPLEDAVTIPCGHTFCRLCLPALSQMGAQSSGKILLCPLCQEEEQAETPMA
B3: TRIM10 RING domain (UniProt Q9UDY6); chain SVTSLADEVNCPICQGTLREPVTIDCGHNFCRACLTRYCEIPGPDLEESPTCPLCKEPFRPGSFRP
B4: PEX2 RING domain (UniProt P28328); chain DNTLATSGKECALCGEWPTMPHTIGCEHIFCYFCAKSSFLFDVYFTCPKCGTEVHSLQPLK
B5: RNF5 RING domain (UniProt Q99942); chain ERGGAGATFECNICLETAREAVVSVCGHLYCWPCLHQWLETRPERQECPVCKAGISREKVVP
Construct (chain): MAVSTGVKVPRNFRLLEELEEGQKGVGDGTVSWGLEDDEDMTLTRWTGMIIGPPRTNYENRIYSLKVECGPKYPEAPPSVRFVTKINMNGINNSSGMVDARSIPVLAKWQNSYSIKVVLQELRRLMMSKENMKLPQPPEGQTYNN
Molecule = LKQVSIRENCCSLCCDEVADTQLKPCGHSDLCMDCALQLETCPLCRKEIVSRIRQI (RSPRY1 RING domain (UniProt Q96DX4)); value = 0
Molecule = B1 (RNF150 RING domain); value = 0
Molecule = B2 (TRIM15 RING domain); value = 0
Molecule = B3 (TRIM10 RING domain); value = 0
Molecule = B4 (PEX2 RING domain); value = 0
Molecule = FLKKLEQSFMCVCCQELVYQPVTTECFHNVCKDCLQRSFKAQVFSCPACRHDLGQNYIMI (UHRF2 RING domain (UniProt Q96PU4)); value = 0
Molecule = B5 (RNF5 RING domain); value = 0
Molecule = KRQCSDVDDICSICQAEFQKPILLICQHIFCEECMTLWFNREKTCPLCRTVISDHINKW (RNFT1 RING domain (UniProt Q5M7Z0)); value = 0

Further values, each from its own experiment
Starting sequence: viral docking peptide; KGVKRKLFAEDSS
Variant = L7G; target = CCNE1, cyclin fold, Cln2 fusion (human); assay = yeast growth competition, sequencing; system = yeast; conditions = strong parent motif; how to read = relative to: not given, higher = stronger binding; endpoint = normalised enrichment score; value = 0.365
